# Results from different studies.
# Numbered parts are unrelated; each lists some results of a single study.
# Chain of UniProt P10721 (whole entry, unmodified, looked up): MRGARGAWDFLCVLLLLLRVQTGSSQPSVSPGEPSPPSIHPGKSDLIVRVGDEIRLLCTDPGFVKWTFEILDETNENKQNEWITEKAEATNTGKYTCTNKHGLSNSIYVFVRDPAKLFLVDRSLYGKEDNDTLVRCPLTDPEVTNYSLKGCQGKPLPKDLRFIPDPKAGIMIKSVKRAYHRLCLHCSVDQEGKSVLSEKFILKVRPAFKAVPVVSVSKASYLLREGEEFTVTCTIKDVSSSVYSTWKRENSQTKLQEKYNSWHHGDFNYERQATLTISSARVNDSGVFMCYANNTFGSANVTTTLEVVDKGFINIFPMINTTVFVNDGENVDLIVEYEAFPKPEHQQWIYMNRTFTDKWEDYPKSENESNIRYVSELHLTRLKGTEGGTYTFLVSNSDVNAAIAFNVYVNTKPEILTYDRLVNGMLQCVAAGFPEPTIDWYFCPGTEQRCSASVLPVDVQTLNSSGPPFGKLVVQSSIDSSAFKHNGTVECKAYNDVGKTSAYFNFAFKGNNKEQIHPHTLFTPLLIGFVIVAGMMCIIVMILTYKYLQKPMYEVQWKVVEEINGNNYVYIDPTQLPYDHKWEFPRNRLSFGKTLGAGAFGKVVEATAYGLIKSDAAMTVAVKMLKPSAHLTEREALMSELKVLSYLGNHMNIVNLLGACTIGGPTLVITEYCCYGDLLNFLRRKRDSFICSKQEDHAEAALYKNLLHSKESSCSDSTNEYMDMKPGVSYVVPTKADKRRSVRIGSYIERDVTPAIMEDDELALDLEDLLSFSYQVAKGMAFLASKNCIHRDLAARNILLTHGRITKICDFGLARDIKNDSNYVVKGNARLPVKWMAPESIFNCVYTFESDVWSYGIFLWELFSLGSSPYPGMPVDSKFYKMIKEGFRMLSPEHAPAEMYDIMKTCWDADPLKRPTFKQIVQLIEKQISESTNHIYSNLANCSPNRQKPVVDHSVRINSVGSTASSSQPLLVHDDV
# Chain of UniProt Q16584 (whole entry, looked up): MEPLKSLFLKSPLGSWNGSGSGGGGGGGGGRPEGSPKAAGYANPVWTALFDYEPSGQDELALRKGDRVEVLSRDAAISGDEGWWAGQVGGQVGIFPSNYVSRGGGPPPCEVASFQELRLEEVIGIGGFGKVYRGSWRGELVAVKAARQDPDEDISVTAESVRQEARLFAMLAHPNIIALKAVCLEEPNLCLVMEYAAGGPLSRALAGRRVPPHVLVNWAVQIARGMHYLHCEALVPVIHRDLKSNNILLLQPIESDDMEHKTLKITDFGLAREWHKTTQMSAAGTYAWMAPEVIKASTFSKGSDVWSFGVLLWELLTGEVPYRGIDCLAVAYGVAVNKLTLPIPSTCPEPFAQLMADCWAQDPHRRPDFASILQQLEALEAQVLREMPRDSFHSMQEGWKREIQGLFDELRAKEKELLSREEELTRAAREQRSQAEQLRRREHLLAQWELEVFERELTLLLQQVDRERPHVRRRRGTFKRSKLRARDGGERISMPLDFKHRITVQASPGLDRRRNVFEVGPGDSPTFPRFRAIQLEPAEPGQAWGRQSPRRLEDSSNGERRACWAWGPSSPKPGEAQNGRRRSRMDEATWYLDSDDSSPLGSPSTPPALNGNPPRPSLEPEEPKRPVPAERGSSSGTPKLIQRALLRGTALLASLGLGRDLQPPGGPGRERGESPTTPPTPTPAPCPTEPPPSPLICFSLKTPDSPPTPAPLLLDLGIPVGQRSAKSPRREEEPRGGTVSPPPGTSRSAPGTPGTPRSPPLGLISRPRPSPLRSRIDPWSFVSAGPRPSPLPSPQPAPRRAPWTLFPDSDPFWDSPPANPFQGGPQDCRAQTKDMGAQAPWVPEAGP
# Chain of UniProt Q9H093 (whole entry, looked up): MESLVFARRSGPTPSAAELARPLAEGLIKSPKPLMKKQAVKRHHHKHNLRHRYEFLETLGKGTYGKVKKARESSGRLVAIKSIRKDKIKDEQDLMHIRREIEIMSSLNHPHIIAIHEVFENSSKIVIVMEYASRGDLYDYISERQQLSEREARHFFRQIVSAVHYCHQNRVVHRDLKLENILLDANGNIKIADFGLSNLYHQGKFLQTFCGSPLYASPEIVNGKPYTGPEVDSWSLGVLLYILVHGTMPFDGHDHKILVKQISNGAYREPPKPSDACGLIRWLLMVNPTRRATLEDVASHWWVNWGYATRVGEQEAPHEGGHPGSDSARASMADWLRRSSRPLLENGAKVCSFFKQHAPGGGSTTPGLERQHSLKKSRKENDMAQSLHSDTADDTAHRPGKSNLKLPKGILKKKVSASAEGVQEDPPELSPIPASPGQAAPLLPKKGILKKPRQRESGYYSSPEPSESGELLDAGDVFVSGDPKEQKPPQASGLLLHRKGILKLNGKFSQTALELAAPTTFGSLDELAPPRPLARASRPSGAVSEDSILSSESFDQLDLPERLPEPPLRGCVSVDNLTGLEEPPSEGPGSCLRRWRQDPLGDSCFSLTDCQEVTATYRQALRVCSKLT
# Chain of UniProt P41743 (whole entry, looked up): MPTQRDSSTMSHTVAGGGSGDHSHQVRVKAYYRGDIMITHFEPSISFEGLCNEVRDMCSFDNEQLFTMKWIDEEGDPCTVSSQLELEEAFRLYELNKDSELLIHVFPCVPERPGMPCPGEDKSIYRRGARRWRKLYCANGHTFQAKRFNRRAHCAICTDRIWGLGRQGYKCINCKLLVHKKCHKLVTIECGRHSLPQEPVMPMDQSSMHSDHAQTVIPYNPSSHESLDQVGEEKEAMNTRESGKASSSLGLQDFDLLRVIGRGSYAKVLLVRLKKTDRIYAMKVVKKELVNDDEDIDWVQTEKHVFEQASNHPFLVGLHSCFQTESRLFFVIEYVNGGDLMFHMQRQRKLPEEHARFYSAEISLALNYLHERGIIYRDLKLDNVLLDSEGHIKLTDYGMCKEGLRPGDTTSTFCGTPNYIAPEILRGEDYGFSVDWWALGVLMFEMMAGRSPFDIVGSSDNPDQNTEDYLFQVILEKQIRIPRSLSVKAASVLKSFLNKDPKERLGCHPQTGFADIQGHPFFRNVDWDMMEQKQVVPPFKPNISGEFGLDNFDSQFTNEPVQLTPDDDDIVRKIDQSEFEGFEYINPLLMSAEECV
# Chain of UniProt Q92630 (whole entry, looked up): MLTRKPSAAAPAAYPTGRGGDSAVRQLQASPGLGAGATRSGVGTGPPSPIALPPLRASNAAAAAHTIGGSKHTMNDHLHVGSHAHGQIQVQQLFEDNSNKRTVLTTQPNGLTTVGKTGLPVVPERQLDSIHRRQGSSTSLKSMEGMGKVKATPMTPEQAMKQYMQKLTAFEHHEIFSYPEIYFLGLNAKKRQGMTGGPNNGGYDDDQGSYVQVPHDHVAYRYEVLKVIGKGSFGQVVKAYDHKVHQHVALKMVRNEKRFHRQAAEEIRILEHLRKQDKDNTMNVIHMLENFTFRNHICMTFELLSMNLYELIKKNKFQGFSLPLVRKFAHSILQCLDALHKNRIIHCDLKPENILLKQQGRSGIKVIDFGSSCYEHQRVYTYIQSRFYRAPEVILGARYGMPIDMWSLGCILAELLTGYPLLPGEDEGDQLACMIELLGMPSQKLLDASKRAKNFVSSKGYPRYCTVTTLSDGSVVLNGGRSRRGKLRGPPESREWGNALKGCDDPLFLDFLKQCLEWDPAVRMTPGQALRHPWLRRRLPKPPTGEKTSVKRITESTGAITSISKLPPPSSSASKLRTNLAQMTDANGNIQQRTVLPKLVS
# Chain of UniProt Q96KB5 (whole entry, looked up): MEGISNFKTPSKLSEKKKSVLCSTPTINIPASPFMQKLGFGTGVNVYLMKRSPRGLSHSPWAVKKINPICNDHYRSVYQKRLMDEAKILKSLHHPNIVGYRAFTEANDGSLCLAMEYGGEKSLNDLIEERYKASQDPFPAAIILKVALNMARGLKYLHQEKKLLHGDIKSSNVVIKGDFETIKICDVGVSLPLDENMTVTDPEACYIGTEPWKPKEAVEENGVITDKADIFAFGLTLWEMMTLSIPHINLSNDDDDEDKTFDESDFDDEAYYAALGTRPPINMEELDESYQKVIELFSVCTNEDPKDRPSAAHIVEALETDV

# Study 1 — read-out: enzyme activity; action: inhibitor; concentration: 0.5 µM; reference: control
# SMILES: CC(C)(C)n1nc(Cc2cccc3ccccc23)c2c(N)ncnc21
target,remaining activity
"CSNK1G1 (Homo sapiens, UniProt Q9HCP0)",92.9%
"STK26 (Homo sapiens, UniProt Q9P289)",80.7%
"PRKD2 (Homo sapiens, UniProt Q9BZL6)",30.7%
"ERBB4 (Homo sapiens, UniProt Q15303)",80.3%
"PBK (Homo sapiens, UniProt Q96KB5)",90.2%
"NUAK2 (Homo sapiens, UniProt Q9H093)",82%
"DAPK3 (Homo sapiens, UniProt O43293)",105%
"MAPKAPK5 (Homo sapiens, UniProt Q8IW41)",95.7%
"EPHA8 (Homo sapiens, UniProt P29322)",66.8%
"EPHA1 (Homo sapiens, UniProt P21709)",29.8%
"MAP3K11 (Homo sapiens, UniProt Q16584)",94.8%
"Protein kinase C beta type, isoform beta-II (PRKCB, Homo sapiens, UniProt P05771)",101%
"CAMK2G (Homo sapiens, UniProt Q13555)",95.4%
"TYK2 (Homo sapiens, UniProt P29597)",99.5%
"NEK7 (Homo sapiens, UniProt Q8TDX7)",103%
"MYLK2 (Homo sapiens, UniProt Q9H1R3)",96%
"IRAK1 (Homo sapiens, UniProt P51617)",87%
"MKNK1 (Homo sapiens, UniProt Q9BUB5)",89.8%
"STK24 (Homo sapiens, UniProt Q9Y6E0)",91.3%

# Study 2 — medium: hydrocarbon/water; pH: 7.4
Structure (SMILES),logD
CCC[C@H]1C(=O)N[C@@H](CC2CCCCC2)C(=O)N(C)[C@@H](C)C(=O)N[C@@H](CC(C)C)C(=O)N(C)Cc2cn(nn2)CC(=O)N[C@@H](CC(C)C)C(=O)N(C)[C@@H](C)C(=O)N[C@@H](CC2CCCCC2)C(=O)N2CCC[C@@H]2C(=O)N1C,2.29
CC(C)C[C@@H]1NC(=O)[C@H](Cc2ccccc2)NC(=O)[C@H]2CCCN2C(=O)[C@H](CC(C)C)NC(=O)[C@H](CC2CCCCC2)NC(=O)[C@@H](CC(C)C)NC1=O,2.77
CC[C@H]1C(=O)N[C@@H](CC(C)C)C(=O)N(C)[C@@H](C)C(=O)N[C@@H](CC(C)C)C(=O)N(C)Cc2cn(nn2)CC(=O)N[C@@H](CC(C)C)C(=O)N(C)[C@@H](C)C(=O)N[C@@H](CC(C)C)C(=O)N2CCC[C@@H]2C(=O)N1C,0.234
CC(C)CC1NC(=O)CN(CC2CCOCC2)C(=O)C2CCCN2C(=O)C(CC(C)C)NC(=O)C(C)N(C)C(=O)C(CC(C)C)NC(=O)CN(Cc2ccc3c(c2)OCO3)C(=O)C2CCCN2C(=O)C(C)NC(=O)C(C)N(C)C1=O (stereo not drawn),1.51
CCC[C@@H]1NC(=O)CN(CC)C(=O)[C@H](CC(C)C)NC(=O)Cn2cc(nn2)CN(C)C(=O)[C@H](CC(C)C)NC(=O)[C@H](C)N(C)C(=O)[C@H](CC(C)C)NC(=O)[C@H](C)N(C)C(=O)[C@H]2CCCN2C1=O,-1.47
CC[C@@H]1C(=O)N(C)[C@@H](C)C(=O)N[C@@H](CC(C)C)C(=O)N2CCC[C@@H]2C(=O)N(C)[C@@H](C)C(=O)N[C@@H](CC(C)C)C(=O)N1C,0.488
CC(C)C[C@@H]1NC(=O)[C@H](C)N(C)C(=O)[C@H](CC2CCCCC2)NC(=O)[C@H](C)N(C)C(=O)[C@H]2CCCN2C(=O)[C@H](CC(C)C)NC(=O)CN(CC(C)C)C(=O)[C@H](CC(C)C)NC(=O)Cn2cc(nn2)CN(C)C1=O,1.17
CCC[C@@H]1NC(=O)CN(CC)C(=O)[C@H](CC(C)C)NC(=O)Cn2cc(nn2)CN(C)C(=O)[C@H](CC(C)C)NC(=O)[C@H](C)N(C)C(=O)[C@H](CC)NC(=O)[C@H](C)N(C)C(=O)[C@H]2CCCN2C1=O,-2.86
CC(C)CC1NC(=O)CN(CC2CCOCC2)C(=O)C2CCCN2C(=O)C(CC(C)C)NC(=O)C(C)N(C)C(=O)C(CC(C)C)NC(=O)CN(CCCOC(C)C)C(=O)C2CCCN2C(=O)C(Cc2ccccc2)NC(=O)C(C)N(C)C1=O (stereo not drawn),2.69
CCN1CC(=O)N[C@@H](CC(C)C)C(=O)N2CCC[C@@H]2C(=O)N(C)[C@@H](CC(C)C)C(=O)N[C@@H](C)C(=O)N(CC2CCOCC2)CC(=O)N[C@@H](Cc2ccccc2)C(=O)N2CCC[C@@H]2C(=O)N(C)[C@@H](CC(C)C)C(=O)N[C@@H](C)C1=O,0.737
CCCN1CC(=O)N[C@@H](CC(C)C)C(=O)N2CCC[C@@H]2C(=O)N(C)[C@@H](C)C(=O)N[C@@H](CC2CCCCC2)C(=O)N(C)[C@@H](C)C(=O)N[C@@H](CC(C)C)C(=O)N(C)Cc2cn(nn2)CC(=O)N[C@@H](CC(C)C)C1=O,0.711
CC[C@@H]1NC(=O)[C@@H](CC)NC(=O)[C@H](CC(C)C)NC(=O)[C@H](Cc2ccccc2)NC(=O)[C@H]2CCCN2C(=O)[C@H](CC(C)C)NC1=O,-0.0718

# Study 3 — concentration: 1 µM
# Compound: O=C1CCc2cc(Nc3cc(OC4CCOCC4)c([N+](=O)[O-])cc3Cl)ccc2N1
target,assay,remaining binding
"DYRK2 (Homo sapiens, UniProt Q92630)","cell-free assay, competition with immobilised ligand",97%
"TRPM6 (Homo sapiens, UniProt Q9BX84)","cell-free assay, competition with immobilised ligand",100%
"PRKCI (Homo sapiens, UniProt P41743)","cell-free assay, competition with immobilised ligand",98%
"ZAP70 (Homo sapiens, UniProt P43403)","cell-free assay, competition with immobilised ligand",91%
"TGFBR1 (Homo sapiens, UniProt P36897)","cell-free assay, competition with immobilised ligand",100%
"FLT3 (Homo sapiens, UniProt P36888, F691L/ITD)","cell-free assay, competition with immobilised ligand",89%
"MAPK8 (Homo sapiens, UniProt P45983)","cell-free assay, competition with immobilised ligand",91%
"GRK1 (Homo sapiens, UniProt Q15835)","cell-free assay, competition with immobilised ligand",100%
"HIPK4 (Homo sapiens, UniProt Q8NE63)","cell-free assay, competition with immobilised ligand",98%
"PDGFRA (Homo sapiens, UniProt P16234)","cell-free assay, competition with immobilised ligand",97%
"PIK3CA (Homo sapiens, UniProt P42336, I800L)","cell-free assay, competition with immobilised ligand",63%
"CAMK1G (Homo sapiens, UniProt Q96NX5)","cell-free assay, competition with immobilised ligand",100%
"PIP5K1C (Homo sapiens, UniProt O60331)","cell-free assay, competition with immobilised ligand",100%
"WNK1 (Homo sapiens, UniProt Q9H4A3)","cell-free assay, competition with immobilised ligand",86%
"Ribosomal protein S6 kinase alpha-6, N-terminal kinase domain (RPS6KA6, Homo sapiens, UniProt Q9UK32)","cell-free assay, competition with immobilised ligand",77%
"KIT (Homo sapiens, UniProt P10721, V559D)","cell-free assay, competition with immobilised ligand",100%
"NEK2 (Homo sapiens, UniProt P51955)","cell-free assay, competition with immobilised ligand",95%
"FGFR3 (Homo sapiens, UniProt P22607)","cell-free assay, competition with immobilised ligand",100%
"Tyrosine-protein kinase ABL1, non-phosphorylated (ABL1, Homo sapiens, UniProt P00519, F317I)","binding, competition with immobilised ligand",100%
"PIP4K2C (Homo sapiens, UniProt Q8TBX8)","cell-free assay, competition with immobilised ligand",100%
"Mast/stem cell growth factor receptor Kit, autoinhibited (KIT, Homo sapiens, UniProt P10721)","cell-free assay, competition with immobilised ligand",99%
"PIK3C2G (Homo sapiens, UniProt O75747)","cell-free assay, competition with immobilised ligand",94%
"CDC42BPG (Homo sapiens, UniProt Q6DT37)",competition binding,99%
"ALK (Homo sapiens, UniProt Q9UM73, L1196M)","cell-free assay, competition with immobilised ligand",100%
"ACVRL1 (Homo sapiens, UniProt P37023)","cell-free assay, competition with immobilised ligand",93%

# Study 4 — SMILES: C=CCc1ccc(O)c(-c2ccc(O)c(CC=C)c2)c1; read-out: chloride current
# ANO1 del476-501/F628A: Anoctamin-1 (ANO1, Homo sapiens, UniProt Q5XXA6, del476-501/F628A)
# Chain of UniProt Q5XXA6 (whole entry, unmodified, looked up): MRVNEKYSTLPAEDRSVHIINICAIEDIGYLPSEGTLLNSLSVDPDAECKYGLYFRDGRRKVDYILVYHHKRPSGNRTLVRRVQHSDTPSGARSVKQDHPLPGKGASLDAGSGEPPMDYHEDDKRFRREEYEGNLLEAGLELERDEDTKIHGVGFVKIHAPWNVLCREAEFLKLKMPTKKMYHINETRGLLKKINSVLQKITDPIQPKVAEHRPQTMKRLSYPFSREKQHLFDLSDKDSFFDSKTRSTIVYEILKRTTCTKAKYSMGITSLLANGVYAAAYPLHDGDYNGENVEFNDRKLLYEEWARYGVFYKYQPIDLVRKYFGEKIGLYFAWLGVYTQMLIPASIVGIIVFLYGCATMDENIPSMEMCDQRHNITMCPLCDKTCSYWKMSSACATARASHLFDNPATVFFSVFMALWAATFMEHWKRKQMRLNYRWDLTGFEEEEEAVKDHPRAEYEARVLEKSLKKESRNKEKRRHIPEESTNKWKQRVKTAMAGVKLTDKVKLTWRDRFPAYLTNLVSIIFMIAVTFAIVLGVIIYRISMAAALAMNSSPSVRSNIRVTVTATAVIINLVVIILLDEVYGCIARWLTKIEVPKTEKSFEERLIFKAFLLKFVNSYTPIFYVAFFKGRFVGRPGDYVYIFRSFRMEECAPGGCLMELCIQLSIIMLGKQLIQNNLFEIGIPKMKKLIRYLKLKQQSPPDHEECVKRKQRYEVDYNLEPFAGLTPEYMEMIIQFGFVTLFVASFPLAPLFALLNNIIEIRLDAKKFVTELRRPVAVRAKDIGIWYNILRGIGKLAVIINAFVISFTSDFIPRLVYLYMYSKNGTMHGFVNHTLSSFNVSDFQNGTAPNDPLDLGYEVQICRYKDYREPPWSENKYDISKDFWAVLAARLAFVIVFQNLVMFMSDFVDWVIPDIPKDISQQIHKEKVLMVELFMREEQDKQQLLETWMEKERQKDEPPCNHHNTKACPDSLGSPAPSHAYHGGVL
# ANO1 del476-501: Anoctamin-1 (ANO1, Homo sapiens, UniProt Q5XXA6, del476-501)
target,assay,conditions,scale,normalized current
ANO1 del476-501/F628A,whole-cell voltage clamp,"10 µM, I-V at 100 mV, added: 4 µM Ca2+",,0.74
"Anoctamin-1 (ANO1, Homo sapiens, UniProt Q5XXA6, del476-501/F803A)","inhibitor, whole-cell voltage clamp",30 µM,reference: untreated,0.34
ANO1 del476-501,whole-cell voltage clamp,"1 µM, wild type, concentration-response at 20 mV, added: 4 µM Ca2+",,0.172
ANO1 del476-501/F628A,whole-cell voltage clamp,"100 µM, concentration-response at 40 mV, added: 4 µM Ca2+",,0.0632
ANO1 del476-501/F628A,whole-cell voltage clamp,"10 µM, concentration-response at -100 mV, added: 4 µM Ca2+",,-0.643
ANO1 del476-501/F628A,whole-cell voltage clamp,"10 µM, I-V at -20 mV, added: 4 µM Ca2+",,-0.111
ANO1 del476-501/F628A,whole-cell voltage clamp,"100 µM, I-V at -80 mV, added: 4 µM Ca2+",,-0.185
ANO1 del476-501/F628A,whole-cell voltage clamp,"100 µM, I-V at 40 mV, added: 4 µM Ca2+",,0.0963
ANO1 del476-501/F628A,whole-cell voltage clamp,"3 µM, I-V at -20 mV, added: 4 µM Ca2+",,-0.143
ANO1 del476-501,whole-cell voltage clamp,"3 µM, wild type, I-V at -60 mV, added: 4 µM Ca2+",,-0.457
ANO1 del476-501/F628A,whole-cell voltage clamp,"10 µM, concentration-response at -60 mV, added: 4 µM Ca2+",,-0.439
"Anoctamin-1 (ANO1, Homo sapiens, UniProt Q5XXA6, del476-501/F807A)","inhibitor, whole-cell voltage clamp",1 µM,reference: untreated,1.04
"Anoctamin-1 (ANO1, Homo sapiens, UniProt Q5XXA6, del476-501/E659A)",inside-out patch clamp,"10 µM, membrane voltage 60 mV",,0.495

# A few entries again (study 1):
target,remaining activity
"CAMK2G (Homo sapiens, UniProt Q13555)",95.4%
"TYK2 (Homo sapiens, UniProt P29597)",99.5%
"NEK7 (Homo sapiens, UniProt Q8TDX7)",103%
"MYLK2 (Homo sapiens, UniProt Q9H1R3)",96%
